Measurements of several laboratories.
Each line is one published result; not all experiments were run side by side. “And” joins repeats or separate records; there may be more than shown. ± gives the spread as reported. Where no end group is shown, it is not given here. [ ]: non-standard residue; d: D form.
HLA class I histocompatibility antigen, A alpha chain allele A*01:01: HLA class I histocompatibility antigen, A alpha chain, allele A*01:01 (Homo sapiens, UniProt P04439)
HLA class I histocompatibility antigen, A alpha chain allele A*02:01: HLA class I histocompatibility antigen, A alpha chain, allele A*02:01 (Homo sapiens, UniProt P04439)
SCRIB PDZ3 domain: Protein scribble homolog, PDZ3 domain (SCRIB, Homo sapiens, UniProt Q14160)
Sequence of UniProt Q14160 (whole entry, looked up): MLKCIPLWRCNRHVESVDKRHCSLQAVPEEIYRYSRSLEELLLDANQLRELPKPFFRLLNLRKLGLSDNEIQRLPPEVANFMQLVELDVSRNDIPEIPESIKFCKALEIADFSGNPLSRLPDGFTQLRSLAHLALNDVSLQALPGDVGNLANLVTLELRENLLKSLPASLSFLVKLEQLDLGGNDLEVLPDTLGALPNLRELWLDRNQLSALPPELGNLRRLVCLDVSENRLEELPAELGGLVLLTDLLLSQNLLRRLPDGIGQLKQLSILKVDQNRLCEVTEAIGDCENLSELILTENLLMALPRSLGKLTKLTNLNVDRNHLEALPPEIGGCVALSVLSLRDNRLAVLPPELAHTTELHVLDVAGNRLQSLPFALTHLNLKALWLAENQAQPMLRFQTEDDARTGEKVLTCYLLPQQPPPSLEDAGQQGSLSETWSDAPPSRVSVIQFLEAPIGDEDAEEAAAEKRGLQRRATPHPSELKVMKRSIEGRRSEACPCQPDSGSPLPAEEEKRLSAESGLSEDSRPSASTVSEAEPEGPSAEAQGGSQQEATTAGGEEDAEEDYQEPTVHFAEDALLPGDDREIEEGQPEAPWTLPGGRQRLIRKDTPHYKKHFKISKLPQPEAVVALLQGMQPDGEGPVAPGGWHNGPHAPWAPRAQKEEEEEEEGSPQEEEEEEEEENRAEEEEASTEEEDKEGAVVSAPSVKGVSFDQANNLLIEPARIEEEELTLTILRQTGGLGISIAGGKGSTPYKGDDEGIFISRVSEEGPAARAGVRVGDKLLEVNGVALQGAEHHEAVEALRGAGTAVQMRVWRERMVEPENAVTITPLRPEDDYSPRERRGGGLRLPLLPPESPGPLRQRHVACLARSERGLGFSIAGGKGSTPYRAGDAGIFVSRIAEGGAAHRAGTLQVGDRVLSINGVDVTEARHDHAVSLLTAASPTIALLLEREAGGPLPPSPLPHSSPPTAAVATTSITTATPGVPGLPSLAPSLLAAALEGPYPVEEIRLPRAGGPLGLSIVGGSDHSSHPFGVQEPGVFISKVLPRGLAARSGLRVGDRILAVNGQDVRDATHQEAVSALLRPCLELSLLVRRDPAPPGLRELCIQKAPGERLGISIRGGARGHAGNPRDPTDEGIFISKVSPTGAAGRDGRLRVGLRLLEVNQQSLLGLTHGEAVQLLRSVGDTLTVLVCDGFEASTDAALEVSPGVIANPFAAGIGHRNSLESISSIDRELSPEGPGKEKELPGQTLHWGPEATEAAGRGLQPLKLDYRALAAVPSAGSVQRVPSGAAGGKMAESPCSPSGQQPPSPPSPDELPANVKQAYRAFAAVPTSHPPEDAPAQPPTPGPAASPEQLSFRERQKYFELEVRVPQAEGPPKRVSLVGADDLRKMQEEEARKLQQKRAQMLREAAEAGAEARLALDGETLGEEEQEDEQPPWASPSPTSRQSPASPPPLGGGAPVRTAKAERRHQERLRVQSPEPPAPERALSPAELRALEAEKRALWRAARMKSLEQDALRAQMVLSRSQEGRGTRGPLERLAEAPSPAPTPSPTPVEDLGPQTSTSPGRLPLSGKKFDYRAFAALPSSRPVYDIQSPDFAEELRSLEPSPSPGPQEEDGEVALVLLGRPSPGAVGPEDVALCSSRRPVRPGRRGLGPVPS
HLA class I histocompatibility antigen, A alpha chain allele A*24:02: HLA class I histocompatibility antigen, A alpha chain, allele A*24:02 (Homo sapiens, UniProt P04439)
Sequence of UniProt P48067 (whole entry, looked up): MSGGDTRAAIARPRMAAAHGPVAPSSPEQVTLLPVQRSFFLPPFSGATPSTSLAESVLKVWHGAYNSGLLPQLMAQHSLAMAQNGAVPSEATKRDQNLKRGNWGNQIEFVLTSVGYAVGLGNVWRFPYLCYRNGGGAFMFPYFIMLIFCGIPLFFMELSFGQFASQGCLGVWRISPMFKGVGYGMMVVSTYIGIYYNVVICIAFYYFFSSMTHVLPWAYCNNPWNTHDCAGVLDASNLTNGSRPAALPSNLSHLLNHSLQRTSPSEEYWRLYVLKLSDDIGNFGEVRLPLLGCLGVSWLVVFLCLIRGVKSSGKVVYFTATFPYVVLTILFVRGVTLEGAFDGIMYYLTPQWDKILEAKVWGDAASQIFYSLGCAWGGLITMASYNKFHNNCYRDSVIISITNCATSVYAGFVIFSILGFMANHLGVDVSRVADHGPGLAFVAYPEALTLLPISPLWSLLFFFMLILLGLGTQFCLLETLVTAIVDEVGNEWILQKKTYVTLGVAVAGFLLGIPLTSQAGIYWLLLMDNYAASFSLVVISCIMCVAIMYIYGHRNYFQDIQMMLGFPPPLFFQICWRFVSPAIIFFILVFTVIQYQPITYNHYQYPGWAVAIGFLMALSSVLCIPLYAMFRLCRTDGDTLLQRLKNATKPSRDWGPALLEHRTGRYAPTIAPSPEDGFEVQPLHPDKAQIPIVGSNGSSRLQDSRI
Sequence of UniProt Q64663 (whole entry, unmodified, looked up): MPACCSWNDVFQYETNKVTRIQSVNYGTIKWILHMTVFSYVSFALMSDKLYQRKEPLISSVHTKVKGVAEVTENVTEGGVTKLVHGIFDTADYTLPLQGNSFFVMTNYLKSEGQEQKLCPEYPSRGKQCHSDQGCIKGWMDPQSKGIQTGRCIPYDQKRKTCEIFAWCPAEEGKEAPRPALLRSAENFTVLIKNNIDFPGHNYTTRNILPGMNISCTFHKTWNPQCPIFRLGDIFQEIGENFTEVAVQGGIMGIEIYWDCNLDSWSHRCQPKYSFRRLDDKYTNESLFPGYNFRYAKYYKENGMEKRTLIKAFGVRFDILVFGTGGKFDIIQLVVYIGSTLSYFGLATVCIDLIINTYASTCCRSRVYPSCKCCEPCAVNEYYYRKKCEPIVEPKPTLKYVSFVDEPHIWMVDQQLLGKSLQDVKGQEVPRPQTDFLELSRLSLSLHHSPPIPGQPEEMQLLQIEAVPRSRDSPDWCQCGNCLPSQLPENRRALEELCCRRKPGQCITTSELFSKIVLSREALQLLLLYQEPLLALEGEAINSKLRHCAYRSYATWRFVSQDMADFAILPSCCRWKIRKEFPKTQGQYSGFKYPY
Sequence of UniProt P00690 (whole entry, looked up): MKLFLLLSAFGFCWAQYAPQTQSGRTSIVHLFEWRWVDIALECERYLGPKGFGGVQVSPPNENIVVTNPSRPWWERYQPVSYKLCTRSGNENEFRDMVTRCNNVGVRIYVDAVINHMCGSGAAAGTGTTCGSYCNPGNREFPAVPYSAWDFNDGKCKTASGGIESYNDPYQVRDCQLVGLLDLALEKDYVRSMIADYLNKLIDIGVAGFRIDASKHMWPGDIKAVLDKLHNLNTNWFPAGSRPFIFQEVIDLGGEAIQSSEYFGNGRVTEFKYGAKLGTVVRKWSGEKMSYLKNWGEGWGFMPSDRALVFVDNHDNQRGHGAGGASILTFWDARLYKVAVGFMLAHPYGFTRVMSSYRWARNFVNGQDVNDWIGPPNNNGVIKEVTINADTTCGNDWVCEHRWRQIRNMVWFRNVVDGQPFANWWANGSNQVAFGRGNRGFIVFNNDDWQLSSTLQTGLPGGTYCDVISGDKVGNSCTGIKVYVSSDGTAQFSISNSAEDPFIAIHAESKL
Sequence of UniProt Q15172 (whole entry, looked up): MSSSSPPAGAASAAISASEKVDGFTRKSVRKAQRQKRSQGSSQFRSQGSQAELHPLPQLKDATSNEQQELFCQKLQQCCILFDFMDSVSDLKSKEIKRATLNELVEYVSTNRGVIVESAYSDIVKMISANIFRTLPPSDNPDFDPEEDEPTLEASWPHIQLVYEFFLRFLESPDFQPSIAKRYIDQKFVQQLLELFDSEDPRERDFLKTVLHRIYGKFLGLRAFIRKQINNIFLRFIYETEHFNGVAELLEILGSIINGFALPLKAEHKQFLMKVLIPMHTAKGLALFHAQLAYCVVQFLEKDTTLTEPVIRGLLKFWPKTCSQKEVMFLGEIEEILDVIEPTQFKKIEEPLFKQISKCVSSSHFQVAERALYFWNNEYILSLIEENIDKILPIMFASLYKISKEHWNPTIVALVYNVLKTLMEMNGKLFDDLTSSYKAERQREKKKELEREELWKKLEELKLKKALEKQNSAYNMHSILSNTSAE
Sequence of UniProt P05067 (whole entry, looked up): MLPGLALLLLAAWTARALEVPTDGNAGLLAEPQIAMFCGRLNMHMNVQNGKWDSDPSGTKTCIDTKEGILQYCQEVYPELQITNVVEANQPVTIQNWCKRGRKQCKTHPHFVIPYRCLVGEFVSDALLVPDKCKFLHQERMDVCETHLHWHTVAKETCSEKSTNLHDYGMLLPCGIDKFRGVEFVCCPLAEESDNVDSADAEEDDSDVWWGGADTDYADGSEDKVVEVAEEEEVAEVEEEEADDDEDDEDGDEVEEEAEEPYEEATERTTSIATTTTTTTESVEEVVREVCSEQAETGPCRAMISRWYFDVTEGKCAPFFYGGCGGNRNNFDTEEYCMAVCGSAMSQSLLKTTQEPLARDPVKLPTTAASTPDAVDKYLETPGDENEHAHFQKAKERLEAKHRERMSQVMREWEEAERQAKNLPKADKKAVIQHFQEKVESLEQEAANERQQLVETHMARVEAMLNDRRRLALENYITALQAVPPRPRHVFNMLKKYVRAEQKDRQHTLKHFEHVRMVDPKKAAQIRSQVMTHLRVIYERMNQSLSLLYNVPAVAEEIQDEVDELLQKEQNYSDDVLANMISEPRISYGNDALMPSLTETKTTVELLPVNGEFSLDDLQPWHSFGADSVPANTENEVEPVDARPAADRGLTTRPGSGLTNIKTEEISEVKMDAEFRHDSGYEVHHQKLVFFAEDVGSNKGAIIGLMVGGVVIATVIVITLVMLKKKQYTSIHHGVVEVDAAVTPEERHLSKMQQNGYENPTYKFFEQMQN
Sequence of UniProt P50613 (whole entry, looked up): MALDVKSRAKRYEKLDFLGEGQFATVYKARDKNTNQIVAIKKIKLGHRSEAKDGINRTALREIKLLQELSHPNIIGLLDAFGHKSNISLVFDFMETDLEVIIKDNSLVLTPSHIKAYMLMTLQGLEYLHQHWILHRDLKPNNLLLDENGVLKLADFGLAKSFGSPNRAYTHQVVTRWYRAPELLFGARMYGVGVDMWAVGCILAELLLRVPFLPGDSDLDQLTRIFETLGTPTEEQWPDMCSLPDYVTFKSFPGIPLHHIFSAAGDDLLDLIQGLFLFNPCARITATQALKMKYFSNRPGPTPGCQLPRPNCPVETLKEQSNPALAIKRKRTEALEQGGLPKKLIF

| Molecule | tested on | assay | test system | conditions | scale | quantity | value |
| --- | --- | --- | --- | --- | --- | --- | --- |
| ITQLMPFGSLL | HLA class I histocompatibility antigen, A alpha chain allele A*01:01 | conformational ELISA | peptide | concentration not given | relative to: positive control peptide, direction not given | binding score | 1.3% |
| Et-DADMe-ImmA | Aminodeoxyfutalosine nucleosidase (Helicobacter pylori, UniProt Q9ZMY2) | radiolabel chase ultrafiltration | – | pH 7.4 | – | dissociation rate k4 | 0.12 ± 0.003 min⁻¹ |
| SYLSGANLNF | human HLA-A24 (A*2401) | peptide-MHC binding, iTopia initial binding | peptide, plate-bound HLA heavy chain | 11 µM, 18 h, 21 °C | relative to: allele-matched positive control peptide | binding | 92% |
| LIMQLMPFGCL | HLA class I histocompatibility antigen, A alpha chain allele A*02:01 | conformational ELISA | peptide | concentration not given | relative to: positive control peptide, direction not given | binding score | 90.7% |
| [Aib][Aib]IA (Aib = CC(C)(N)C(=O)O) | APP (Homo sapiens, UniProt P05067) | aggregation, ThT fluorescence | – | 24 h, 37 °C, Aβ to peptide ratio 1:5, added: Aβ1–42 2 µM | relative to: Aβ1–42 alone, lower is stronger inhibition | ThT fluorescence | 79% |
| TQSKNGPVPV | SCRIB PDZ3 domain | binding, fluorescence polarization | peptide, solution | Scribble PDZ3 domain | – | Kd | 100 µM |
| TQLMPFGSLL | HLA class I histocompatibility antigen, A alpha chain allele A*24:02 | conformational ELISA | peptide | concentration not given | relative to: positive control peptide, direction not given | binding score | 1.2% |
| AINPELLQL | HLA class I histocompatibility antigen, A alpha chain allele A*02:01 | HLA-A2 stabilization, peptide titration | peptide, T2 | 20 h, 37 °C, added: human β2-microglobulin 100 ng/mL | relative to: HIVpol reference peptide, lower is stronger | relative affinity | 53.1 |
| alpinetin | AMY2 (Sus scrofa, UniProt P00690) | enzyme activity, inhibitor | – | concentration not given, added: CNP-G3 substrate | – | inhibition | 34.8% and 33.4% |
| KPGKGSETVV | human MAGI1-3/6 PDZ construct (MBP fusion) | automated holdup | peptide, crude extract | concentration not given, corrected by standard peak, unit not given | relative to: biotin control resin, higher = stronger binding | binding intensity | 0.128 |
| DRVKGKCTLM | SCRIB PDZ3 domain | binding, fluorescence polarization | peptide, solution | Scribble PDZ3 domain | – | Kd | 100 µM |
| colistin | Acinetobacter baumannii | broth microdilution | clinical isolate RKI-No_523/16 | – | – | MIC | ≤ 0.5 µg/mL |
| 11-deoxycorticosterone | CYP11B2 (human) | substrate binding, stopped-flow global kinetic fitting | purified enzyme | 3-state induced fit model, added: 40-fold excess adrenodoxin | – | rate constant k2 | 0.0128 ± 0.474 s⁻¹ |
| TSFFSGLSPIEEEAD | Serine/threonine-protein phosphatase 2A 56 kDa regulatory subunit alpha isoform (Homo sapiens, UniProt Q15172) | binding kinetics | peptide | 2 µM, 4 °C | – | time to equilibrium | ~24 h |
| ITQLMPFGSL | HLA class I histocompatibility antigen, A alpha chain allele A*24:02 | conformational ELISA | peptide | concentration not given | relative to: positive control peptide, direction not given | binding score | 1.8% |
| GSGAGKETYY | human SCRIB PDZ3-4 tandem (MBP fusion) | automated holdup | peptide, crude extract | concentration not given, uncorrected, unit not given | relative to: biotin control resin, higher = stronger binding | binding intensity | 0.0248 |
| BzATP | P2X purinoceptor 7 (P2rx7, Rattus norvegicus, UniProt Q64663, I214A/R125A) | ion current, agonist, two-electrode voltage clamp | Xenopus laevis oocytes | 0.41 µM | relative to: highest concentration response | normalized current | 0 |
| milbemycin oxime | CDR1 (Candida albicans, UniProt Q5ANA3) | binding, microscale thermophoresis | – | 625 nM | – | fraction bound | 80.9% |

| Molecule | tested on | assay | test system | conditions | scale | quantity | value |
| --- | --- | --- | --- | --- | --- | --- | --- |
| EESDDLYIPAFLRKQLD | Catenin beta-1 (CTNNB1, Homo sapiens, UniProt P35222) | immunoblot | peptide, DLD-1, cytosolic fraction | – | relative to: non-transfected cells | degradation | > 50% |
| VLRENTSPK | HLA class I histocompatibility antigen, A alpha chain (Homo sapiens, UniProt P04439) | peptide-MHC binding, iTopia initial binding | peptide, plate-bound HLA heavy chain | 11 µM, 18 h, 21 °C, HLA-A3 allele | relative to: allele-matched positive control peptide | binding | 34% |
| GLAFVPLQI | HLA class I histocompatibility antigen, A alpha chain allele A*02:01 | HLA-A2 stabilization, peptide titration | peptide, T2 | 20 h, 37 °C, added: human β2-microglobulin 100 ng/mL | relative to: HIVpol reference peptide, lower is stronger | relative affinity | 12.6 |
| CIIS | Candida albicans protein farnesyltransferase | peptide prenylation, substrate, SPOT peptide library | peptide | added: C15-Alk | relative to: random library | relative spot intensity | 100% |
| FLAFVPLQL | HLA class I histocompatibility antigen, A alpha chain allele A*02:01 | HLA-A2 stabilization, peptide titration | peptide, T2 | 20 h, 37 °C, added: human β2-microglobulin 100 ng/mL | relative to: HIVpol reference peptide, lower is stronger | relative affinity | 1.47 |
| TVQLIMQLM | HLA class I histocompatibility antigen, A alpha chain allele A*01:01 | conformational ELISA | peptide | concentration not given | relative to: positive control peptide, direction not given | binding score | 0.2% |
| KAQLYGTLLN | SCRIB PDZ3 domain | binding, fluorescence polarization | peptide, solution | Scribble PDZ3 domain | – | Kd | 100 µM |
| Phosphate | Inorganic phosphate transporter PHO84 (PHO84, Saccharomyces cerevisiae, UniProt P25297) | uptake, substrate | – | 10 min, pH 7.4, added: 25 mM NaCl | – | Km | 110 ± 10 µM |
| CTIL | Candida albicans protein farnesyltransferase | substrate, dansyl fluorescence kinetics | peptide | added: 4 µM C15-Alk | – | Km | 6.1 ± 1.6 µM |
| NEKEELKSKKAELRNRIEQLKQKREQLKQKIANLRKEIEAYK | Protein c-Fos (FOS, Homo sapiens, UniProt P01100) | heterodimer thermal denaturation, CD | peptide, 1 M GuHCl | 4 µM total peptide, pH 7.4 | – | Tm | 43.6 °C |
| LIMQLMPF | HLA class I histocompatibility antigen, A alpha chain allele A*01:01 | conformational ELISA | peptide | concentration not given | relative to: positive control peptide, direction not given | binding score | 0.6% |
| methyl-β-cyclodextrin | SLC6A9 (Homo sapiens, UniProt P48067) | transport activity, [3H]glycine uptake | – | 2.5 mg/mL, 1 min, added: glycine 75 µM | higher = more transport | glycine uptake rate | 37.4 a.u. and 25.1 a.u. and 24 a.u. and 37.3 a.u. and 38.2 a.u. |
| YTNPEFVINV | SCRIB PDZ3 domain | binding, fluorescence polarization | peptide, solution | Scribble PDZ3 domain | – | Kd | 100 µM |
| ITDFGRAKLLG | HLA class I histocompatibility antigen, A alpha chain allele A*01:01 | conformational ELISA | peptide | concentration not given | relative to: positive control peptide, direction not given | binding score | 0.1% |
| cryptolepine | CDK7 (Homo sapiens, UniProt P50613) | enzyme activity, inhibitor, ADP-Glo kinase | – | 10 µM | – | inhibition | 10.9 ± 7.8% |
| 6-carboxyfluorescein | SLCO2A1 (Homo sapiens, UniProt Q92959, W565F) | compound uptake, substrate | HEK293F expressing SLCO2A1 W565F | 50 µM | relative to: wild type | uptake | 57.4% and 48% |
| LMPFGSLLDY | HLA class I histocompatibility antigen, A alpha chain allele A*01:01 | complex stability, off-rate | peptide | 37 °C | – | half-life of peptide-HLA complex | 24 min |

A few entries again:
| Molecule | tested on | assay | test system | conditions | scale | quantity | value |
| --- | --- | --- | --- | --- | --- | --- | --- |
| YTNPEFVINV | SCRIB PDZ3 domain | binding, fluorescence polarization | peptide, solution | Scribble PDZ3 domain | – | Kd | 100 µM |
| ITDFGRAKLLG | HLA class I histocompatibility antigen, A alpha chain allele A*01:01 | conformational ELISA | peptide | concentration not given | relative to: positive control peptide, direction not given | binding score | 0.1% |
| cryptolepine | CDK7 (Homo sapiens, UniProt P50613) | enzyme activity, inhibitor, ADP-Glo kinase | – | 10 µM | – | inhibition | 10.9 ± 7.8% |
| 6-carboxyfluorescein | SLCO2A1 (Homo sapiens, UniProt Q92959, W565F) | compound uptake, substrate | HEK293F expressing SLCO2A1 W565F | 50 µM | relative to: wild type | uptake | 57.4% and 48% |
